Measured values gathered from unrelated publications.
Each line is one published result; not all experiments were run side by side. In brackets after ≈: the same amount, converted by molar mass.

Structure (SMILES) = COc1ccc(-n2c(=O)c(C(=O)C3C(=O)CCCC3=O)nc3c(F)cccc32)cc1; organism = Schoenoplectus juncoides; test = herbicidal activity, paddy pot test, visual rating; conditions = 28 days; quantity = ED90; result = 6.3 g a.i./10 a
Structure (SMILES) = Cc1cccc2c1N(C(=O)n1ccnn1)CC2; organism = Arabidopsis thaliana; test system = wild type; conditions = solo treatment; quantity = hypocotyl elongation inhibition; result = > 30 µM
Structure (SMILES) = CCNC1=CC(=O)c2cc3c(cc2C1=O)CCCC3(C)C; organism = Leishmania infantum; test system = intracellular amastigotes, ex vivo mouse splenic explants; scale = reference: HepG2 CC50 over amastigote EC50; quantity = selectivity index; result = 4.4
Structure (SMILES) = Oc1c(Br)cc(Br)c2nc3c(C(F)(F)F)cc(C(F)(F)F)cc3nc12; organism = Staphylococcus epidermidis; test = Calgary biofilm device; test system = 12228; quantity = MBEC; result = 0.15 µM
Structure (SMILES) = CC(=O)[O-].O.[Cu+2].[O-]c1ccc(Br)cc1C=NCCN1CCOCC1; organism = Shigella flexneri; conditions = 20 µL of 100 µM per disc; quantity = inhibition zone diameter; result = 22 mm
Structure (SMILES) = CC1(C)NCCC[C@]2(C)[C@H]3CC=C4[C@@H]5C[C@@](C)(CO)CC[C@]5(C)CC[C@@]4(C)[C@]3(C)CC[C@@H]12; organism = Human papillomavirus 11; test = viral replication, luciferase reporter; test system = C-33 A; quantity = EC90; result = > 1200 nM
Structure (SMILES) = CC(C)C[C@@H]1NC(=O)[C@H](CCCCN)NC(=O)[C@H](C(C)C)NC(=O)[C@@H]2CCCN2C(=O)[C@@H](Cc2ccc(O)cc2)NC(=O)[C@H](CC(C)C)NC(=O)[C@H](CCCCN)NC(=O)[C@H](C(C)C)NC(=O)[C@H](CCCCN)NC(=O)[C@H](CC(C)C)NC(=O)[C@H](CCCCN)NC(=O)[C@@H]2CCCN2C(=O)[C@@H](Cc2ccc(O)cc2)NC(=O)[C@H](C(C)C)NC(=O)[C@H](CCCCN)NC1=O; organism = fungi; conditions = 24 h, 2 strains; quantity = MIC geometric mean; result = 5.7 µg/mL
Structure (SMILES) = CC[C@@H](C)[C@@H](NC(=O)[C@@H](C)NC(=O)[C@@H](CCCCN)NC(=O)[C@@H](CC(C)C)NC(=O)[C@@H](CC(C)C)NC(=O)[C@H](NC(=O)[C@@H](CCCCN)NC(=O)[C@@H](CC(C)C)NC(=O)[C@@H](C)NC(=O)[C@@H](CCCCN)NC(=O)[C@@H](CCCCN)NC(=O)[C@@H](CCCCN)NC(=O)[C@@H](C)NC(=O)[C@@H](CCCCN)NC(=O)[C@@H](CO)NC(=O)[C@@H](Cc1ccccc1)NC(=O)[C@H](NC(=O)[C@@H](CCCCN)NC(=O)[C@@H](CC(C)C)NC(=O)[C@@H](Cc1ccccc1)NC(=O)[C@@H](CO)NC(=O)[C@@H](CCCCN)NC(=O)[C@@H](Cc1c[nH]c2ccccc12)NC(=O)[C@@H](CCCCN)NC(C)=O)[C@H](C)O)[C@H](C)O)C(=O)N[C@H](CO)C(=O)N[C@H](CCCCN)C(N)=O; organism = Acinetobacter baumannii; test system = 11 isolates; conditions = 24 h, 37 °C; quantity = MIC geometric mean; result = 0.8 µM
Structure (SMILES) = COc1ccc(-n2c(=O)c(C(=O)C3C(=O)CCCC3=O)nc3ccccc32)cc1; organism = Schoenoplectus juncoides; test = herbicidal activity, paddy pot test, visual rating; conditions = 28 days; quantity = ED90; result = 6.3 g a.i./10 a
Structure (SMILES) = O=c1c(O)cccc(Sc2cccc3ccccc23)c1O; organism = human alphaherpesvirus 1; test = plaque reduction; test system = Vero; conditions = 1 µM; quantity = viral replication inhibition; result = inactive
Structure (SMILES) = Cc1ccc(S(=O)(=O)N(CCc2nnc(S)o2)c2ccccc2)cc1; organism = Aspergillus niger; test = cup plate method; conditions = 100 µg/mL; scale = reference: fluconazole; quantity = relative inhibition; result = 20.7%
Structure (SMILES) = Cc1ncc([N+](=O)[O-])n1CCOCc1nnc(SCC(=O)c2ccc([N+](=O)[O-])cc2)o1; organism = Serratia marcescens; test system = DMSO; conditions = 60 µg/mL, 24 h, 37 °C; quantity = inhibition zone diameter; result = 10 to 15 mm
Structure (SMILES) = C[C@@H](c1ccn(Cc2ccc(F)cc2F)n1)[C@](O)(Cn1cnnn1)c1ccc(F)cc1F; organism = Aspergillus fumigatus; test = growth, broth microdilution; test system = 7544; conditions = 48 h, 35 °C, ≥50% inhibition; quantity = MIC; result = 32 µg/mL (≈ 71.7 µM)
Structure (SMILES) = COc1cc(OC(C)=O)c2cc3c(cc2c1OC(C)=O)CCCC3(C)C; organism = Leishmania infantum; test system = intracellular amastigotes, ex vivo mouse splenic explants; scale = reference: HepG2 CC50 over amastigote EC50; quantity = selectivity index; result = 2.8
Structure (SMILES) = CCCCCCN=Cc1[nH]c(-c2ccc[nH]2)cc1OC; organism = Plasmodium yoelii; test system = Kenya strain MRA-428, mice; conditions = oral, 100 mg/kg daily for 4 days, day 5; quantity = parasitaemia suppression; result = 100%
Structure (SMILES) = CCOC1=CC(=O)c2cc3c(cc2C1=O)CCCC3(C)C; organism = Leishmania infantum; test system = intracellular amastigotes, ex vivo mouse splenic explants; scale = reference: HepG2 CC50 over amastigote EC50; quantity = selectivity index; result = 13
Structure (SMILES) = CCc1c(C)[nH]c(C=NC23CC4CC(CC(C4)C2)C3)c1C; organism = Plasmodium yoelii; test system = Kenya strain MRA-428, mice; conditions = oral, 25 mg/kg daily for 4 days, day 5; quantity = parasitaemia suppression; result = 17%
Structure (SMILES) = CC(=O)Oc1ccc(OC(C)=O)c2cc3c(cc12)CCCC3(C)C; organism = Leishmania infantum; test system = intracellular amastigotes, ex vivo mouse splenic explants; scale = reference: HepG2 CC50 over amastigote EC50; quantity = selectivity index; result = 2.3
Structure (SMILES) = COC1=CC(c2ccc[nH]2)=NC1=CNC1CCCCCCC1; organism = Plasmodium yoelii; test system = Kenya strain MRA-428, mice; conditions = oral, 100 mg/kg daily for 4 days, day 5; quantity = parasitaemia suppression; result = 100%
Structure (SMILES) = CC[C@H](C)[C@H](NC(=O)[C@H](CC(=O)O)NC(=O)[C@@H](NC(=O)[C@H](CC(N)=O)NC(=O)[C@H](CC(N)=O)NC(=O)[C@H](CC(=O)O)NC(=O)[C@H](CCCNC(=N)N)NC(=O)CNC(=O)[C@H](CS)NC(=O)[C@H](CC(=O)O)NC(=O)[C@H](Cc1c[nH]cn1)NC(=O)[C@@H]1CCCN1C(=O)[C@H](CC(C)C)NC(=O)[C@@H]1CCCN1C(=O)[C@H](CC(N)=O)NC(=O)[C@H](Cc1ccc(O)cc1)NC(=O)[C@@H](N)Cc1ccc(O)cc1)[C@@H](C)O)C(=O)N[C@@H](CS)C(=O)N[C@@H](CO)C(=O)N[C@@H](CCCNC(=N)N)C(=O)O; organism = Escherichia coli, Acinetobacter baumannii, Pseudomonas aeruginosa; quantity = MBC; result = > 128 µM
Structure (SMILES) = C[C@H]1[C@H](C)CC[C@]2(CO)CC[C@]3(C)C(=CC[C@@H]4[C@@]5(C)CCCNC(C)(C)[C@@H]5CC[C@]43C)[C@H]12; organism = Human papillomavirus 11; test = viral replication, luciferase reporter; test system = C-33 A; quantity = EC90; result = > 1200 nM
Structure (SMILES) = CCn1ccc([C@H](C)[C@](O)(Cn2cnnn2)c2ccc(F)cc2F)n1; organism = Aspergillus fumigatus; test = growth, broth microdilution; test system = 7544; conditions = 48 h, 35 °C, ≥50% inhibition; quantity = MIC; result = > 64 µg/mL
Structure (SMILES) = Fc1ccc2c(c1)c1nc3ccc(Br)cc3c-1cn2Cc1cn(-c2ccccc2I)nn1; organism = Giardia duodenalis trophozoites; test = UHPLC-Q-TOF-MS, refers to: LysoPE(0:0/18:0); conditions = IC50, 0.1742 h; scale = reference: 0.25% DMSO; quantity = fold change; result = 3.22
Structure (SMILES) = CCCCn1c2ccccc2c2ccnc(-c3ccccc3Cl)c21; organism = Echinococcus granulosus sensu stricto; test system = protoscoleces; conditions = 200 µM, 48 h; quantity = killed protoscoleces; result = > 90%
Structure (SMILES) = CCCCCCCCCC1CC2CCCC3CC(CCCCCCCCC)NC(=N1)N23 (stereo not shown); organism = Aspergillus fumigatus; test = fungal growth; test system = ATCC 204305; quantity = MFC; result = 23.2 µM (≈ 10 µg/mL)
Structure (SMILES) = Brc1ccc(-c2c[nH]c(-c3ccccn3)n2)cc1; organism = Schistosoma mansoni; test system = adult male worms; conditions = 50 µM; quantity = worm killing; result = 88%
Structure (SMILES) = C[C@@H](c1ccn(Cc2ccc(F)cc2)n1)[C@](O)(Cn1cnnn1)c1ccc(F)cc1F; organism = Aspergillus fumigatus; test = growth, broth microdilution; test system = 7544; conditions = 48 h, 35 °C, ≥50% inhibition; quantity = MIC; result = > 64 µg/mL
Structure (SMILES) = COc1ccc(-c2nc(-c3ccccc3OC)[nH]c2-c2ccc(OC)cc2)cc1; organism = Schistosoma mansoni; test system = female worms; conditions = 10 µM; quantity = worm killing; result = 0%
Structure (SMILES) = CCNC1=C(Cl)C(=O)c2cc3c(cc2C1=O)CCCC3(C)C; organism = Leishmania infantum; test system = intracellular amastigotes, ex vivo mouse splenic explants; scale = reference: HepG2 CC50 over amastigote EC50; quantity = selectivity index; result = > 3
Structure (SMILES) = CC(C)C[C@@H]1NC(=O)[C@H](CCCCN)NC(=O)[C@H](C(C)C)NC(=O)[C@@H]2CCCN2C(=O)[C@@H](Cc2ccc(O)cc2)NC(=O)[C@H](CC(C)C)NC(=O)[C@H](CCCCN)NC(=O)[C@H](C(C)C)NC(=O)[C@H](CCCCN)NC(=O)[C@@H]2CCCN2C(=O)[C@@H](Cc2ccc(O)cc2)NC(=O)[C@H](CCCCN)NC1=O; organism = fungi; conditions = 24 h, 2 strains; quantity = MIC geometric mean; result = 45.2 µg/mL
Structure (SMILES) = Cc1ncc([N+](=O)[O-])n1CCOCc1nnc(SCC(=O)c2ccc(O)cc2)o1; organism = Serratia marcescens; test system = DMSO; conditions = 60 µg/mL, 24 h, 37 °C; quantity = inhibition zone diameter; result = 15 to 20 mm
Structure (SMILES) = C[C@@H](c1ccn(Cc2ccc(C(C)(C)C)cc2)n1)[C@](O)(Cn1cnnn1)c1ccc(F)cc1F; organism = Aspergillus fumigatus; test = growth, broth microdilution; test system = 7544; conditions = 48 h, 35 °C, ≥50% inhibition; quantity = MIC; result = > 64 µg/mL
Structure (SMILES) = O=S(=O)(c1ccccc1)N(CCc1nnc(S)o1)c1ccc(Cl)cc1; organism = Aspergillus niger; test = cup plate method; conditions = 100 µg/mL; scale = reference: fluconazole; quantity = relative inhibition; result = 48.5%
Structure (SMILES) = O=C1CC(c2ccc(O)cc2)Oc2cc(O)cc([O][Ga+][O]c3cc(O)cc4c3C(=O)CC(c3ccc(O)cc3)O4)c21 (stereo not shown); organism = Pseudomonas aeruginosa; test = RNA-seq; test system = PAO1; conditions = 4 µM, 4 h; quantity = number of downregulated genes; result = 778
Structure (SMILES) = COC1=CC(c2ccc[nH]2)=NC1=Cc1[nH]c(Cc2ccc(Cl)cc2)cc1Cc1ccc(Cl)cc1; organism = Plasmodium yoelii; test system = Kenya strain MRA-428, mice; conditions = oral, 100 mg/kg daily for 4 days, day 5; quantity = parasitaemia suppression; result = 100%
Structure (SMILES) = C[C@@H](c1ccn(Cc2cc(F)c(F)c(F)c2)n1)[C@](O)(Cn1cnnn1)c1ccc(F)cc1F; organism = Aspergillus fumigatus; test = growth, broth microdilution; test system = 7544; conditions = 48 h, 35 °C, ≥50% inhibition; quantity = MIC; result = > 64 µg/mL
Structure (SMILES) = CC1(C)CC[C@]2(CO)CC[C@]3(C)C(=CC[C@@H]4[C@@]5(C)CCCNC(C)(C)[C@@H]5CC[C@]43C)[C@@H]2C1; organism = Human papillomavirus 11; test = viral replication, luciferase reporter; test system = C-33 A; quantity = EC90; result = > 240 nM

Repeated from above:
Structure (SMILES) = CCn1ccc([C@H](C)[C@](O)(Cn2cnnn2)c2ccc(F)cc2F)n1; organism = Aspergillus fumigatus; test = growth, broth microdilution; test system = 7544; conditions = 48 h, 35 °C, ≥50% inhibition; quantity = MIC; result = > 64 µg/mL
Structure (SMILES) = CC[C@@H](C)[C@@H](NC(=O)[C@@H](C)NC(=O)[C@@H](CCCCN)NC(=O)[C@@H](CC(C)C)NC(=O)[C@@H](CC(C)C)NC(=O)[C@H](NC(=O)[C@@H](CCCCN)NC(=O)[C@@H](CC(C)C)NC(=O)[C@@H](C)NC(=O)[C@@H](CCCCN)NC(=O)[C@@H](CCCCN)NC(=O)[C@@H](CCCCN)NC(=O)[C@@H](C)NC(=O)[C@@H](CCCCN)NC(=O)[C@@H](CO)NC(=O)[C@@H](Cc1ccccc1)NC(=O)[C@H](NC(=O)[C@@H](CCCCN)NC(=O)[C@@H](CC(C)C)NC(=O)[C@@H](Cc1ccccc1)NC(=O)[C@@H](CO)NC(=O)[C@@H](CCCCN)NC(=O)[C@@H](Cc1c[nH]c2ccccc12)NC(=O)[C@@H](CCCCN)NC(C)=O)[C@H](C)O)[C@H](C)O)C(=O)N[C@H](CO)C(=O)N[C@H](CCCCN)C(N)=O; organism = Acinetobacter baumannii; test system = 11 isolates; conditions = 24 h, 37 °C; quantity = MIC geometric mean; result = 0.8 µM
Structure (SMILES) = O=c1c(O)cccc(Sc2cccc3ccccc23)c1O; organism = human alphaherpesvirus 1; test = plaque reduction; test system = Vero; conditions = 1 µM; quantity = viral replication inhibition; result = inactive
Structure (SMILES) = COc1ccc(-c2nc(-c3ccccc3OC)[nH]c2-c2ccc(OC)cc2)cc1; organism = Schistosoma mansoni; test system = female worms; conditions = 10 µM; quantity = worm killing; result = 0%
Structure (SMILES) = C[C@@H](c1ccn(Cc2ccc(F)cc2)n1)[C@](O)(Cn1cnnn1)c1ccc(F)cc1F; organism = Aspergillus fumigatus; test = growth, broth microdilution; test system = 7544; conditions = 48 h, 35 °C, ≥50% inhibition; quantity = MIC; result = > 64 µg/mL
Structure (SMILES) = CC1(C)CC[C@]2(CO)CC[C@]3(C)C(=CC[C@@H]4[C@@]5(C)CCCNC(C)(C)[C@@H]5CC[C@]43C)[C@@H]2C1; organism = Human papillomavirus 11; test = viral replication, luciferase reporter; test system = C-33 A; quantity = EC90; result = > 240 nM
